Published values gathered from unrelated publications.
Compare with care: the assays were run in different laboratories. Values joined by “and” are separate records of one study, mostly repeats; a detail may differ. ± gives the spread as reported.
rep main protease: Replicase polyprotein 1ab, main protease (rep, Severe acute respiratory syndrome coronavirus 2, UniProt P0DTD1)

With `O=C(CSc1nc2ccccc2c(=O)[nH]1)NNC(=O)c1ccccc1Br` the inhibition was 16.7 ± 3.35% (SARS-CoV-2; viral adsorption, plaque reduction; 31.25 µM).
For `Cn1cnc(Cn2c(=O)[nH]/c(=N\c3cc4cn(C)nc4cc3Cl)n(Cc3cc(F)c(F)cc3F)c2=O)n1`, “dry mouth TEAE, Moderate severity” read 0% (human, all renal function groups; oral, 375 mg).
With `CN(C)c1ccc(C2Nc3ccc4ccccc4c3C3=C2C(=O)CC(C)(C)C3)cc1Br` (stereo not shown) the inhibition was -4.45% (rep main protease; viral replication, Gluc reporter; SARS-CoV-2; 20 µM).
For `Cc1c(Cl)c(=O)oc2cc(OP(=O)(OCCCl)OCCCl)ccc12`, the inhibition was 46.5% (SARS-CoV-2; viral replication; Vero E6, USA-WA1/2020; 2.5 µM).
`O=C(/C=C/c1ccc(O)c(O)c1/C=C/c1ccc(O)c(O)c1)O[C@H](Cc1ccc(O)c(O)c1)C(=O)O` has an inhibition of 0% (SARS-CoV-2; cytopathic effect; Vero E6; 0.7812 µM, first run).
For `CC1(C)CCC(C)(C)c2cc(C(=O)Nc3ccc(C(=O)O)cc3)ccc21`, the inhibition was 41.1% (SARS-CoV-2; viral replication; Vero E6, USA-WA1/2020; 2.5 µM).
For `CC(C)=CCc1c(O)ccc(C(=O)/C=C/c2ccc(O)cc2)c1O`, the inhibition was 0% (SARS-CoV-2; viral cytopathic effect; Vero E6; 12.5 µM).
`CC(C)(C)[C@H](NC(=O)C(F)(F)F)C(=O)N1C[C@H]2[C@@H]([C@H]1C(=O)N[C@H](C#N)C[C@@H]1CCNC1=O)C2(C)C` gave an inhibition of 1.25% and 1.54% and 7.67% (SARS-CoV-2; viral replication; Vero E6; 0.313 µM).
With `Cn1cnc(Cn2c(=O)[nH]/c(=N\c3cc4cn(C)nc4cc3Cl)n(Cc3cc(F)c(F)cc3F)c2=O)n1` the inhibition was 100% (SARS-CoV-2; viral replication; Vero C1008, wild type; 12.5 µM).
With `O=C(CSc1nc2c(c(=O)[nH]1)CCCC2)NNC(=O)c1ccc([N+](=O)[O-])cc1` the inhibition was 38.9 ± 1.91% (SARS-CoV-2; viral replication, plaque reduction; 62.5 µM).
For `COc1cc(C)c(/C=C/C(C)=C/C=C/C(C)=C/C(=O)O)c(C)c1C`, the inhibition was 40% (SARS-CoV-2; viral replication; Vero E6, USA-WA1/2020; 2.5 µM).
For `Nc1ncnc2c([C@@H]3N[C@H](CO)[C@@H](O)[C@H]3O)c[nH]c12`, the inhibition was 99% (Marburg virus; viral replication; HeLa, Musoke; 400 µM).
For `O=C(O[C@@H]1Cc2c(O)cc(O)cc2O[C@@H]1c1cc(O)c(O)c(O)c1)c1cc(O)c(O)c(O)c1`, the inhibition was 90% (SARS-CoV-2; cytopathic effect; Vero E6; 50 µM, first run).
The inhibition of `CC(C)c1oc2ccc(C#N)cc2c1-c1ccccn1` is reported as 50.9% (SARS-CoV-2; viral replication; Vero E6, USA-WA1/2020; 2.5 µM).
For `COc1ccc(C[C@@H]2c3cc(Oc4cc(C[C@@H]5c6cc(O)c(OC)cc6CCN5C)ccc4O)c(OC)cc3CCN2C)cc1`, the inhibition was 25% (SARS-CoV-2; cytopathic effect; Vero C1008 (E6); 50 µM).
For `O=C(CSc1nc2c(c(=O)[nH]1)CCCC2)NNC(=O)c1ccc(Cl)cc1`, the inhibition was 53% (SARS-CoV-2; virucidal activity, plaque reduction; 125 µM).
For `O=C1/C(=C/c2ccc(Cl)c(Cl)c2)CNC/C1=C\c1ccc(Cl)c(Cl)c1`, the inhibition was -1.58% (rep main protease; viral replication, Gluc reporter; SARS-CoV-2; 20 µM).
`CC[C@H](C)[C@H](NC(=O)[C@H](CC(C)C)NC(=O)[C@H](Cc1c[nH]c2ccccc12)NC(=O)[C@H](CCC(N)=O)NC(=O)[C@@H](NC(=O)[C@H](Cc1ccccc1)NC(=O)[C@H](C)NC(=O)[C@H](CCCCNC(=O)COCCOCCNC(=O)COCCOCCNC(=O)CC[C@H](NC(=O)CCCCCCCCCCCCCCCCCCC(=O)O)C(=O)O)NC(=O)[C@H](CCC(N)=O)NC(=O)[C@H](C)NC(=O)[C@@H](NC(=O)[C@H](CCCCN)NC(=O)[C@H](CC(=O)O)NC(=O)[C@H](CC(C)C)NC(=O)C(C)(C)NC(=O)[C@@H](NC(=O)[C@H](CO)NC(=O)[C@H](Cc1ccc(O)cc1)NC(=O)[C@H](CC(=O)O)NC(=O)[C@H](CO)NC(=O)[C@@H](NC(=O)[C@H](Cc1ccccc1)NC(=O)[C@@H](NC(=O)CNC(=O)[C@H](CCC(=O)O)NC(=O)C(C)(C)NC(=O)[C@@H](N)Cc1ccc(O)cc1)[C@@H](C)O)[C@@H](C)O)[C@@H](C)CC)[C@@H](C)CC)C(C)C)C(=O)N[C@@H](C)C(=O)NCC(=O)NCC(=O)N1CCC[C@H]1C(=O)N[C@@H](CO)C(=O)N[C@@H](CO)C(=O)NCC(=O)N[C@@H](C)C(=O)N1CCC[C@H]1C(=O)N1CCC[C@H]1C(=O)N1CCC[C@H]1C(=O)N[C@@H](CO)C(N)=O` has a severe hypoglycaemia of 0% (healthy subjects; 1.5 mg, multiple ascending dose).
With `CNC(=O)[C@@H](NC(=O)[C@H](CC(C)C)[C@H](O)C(=O)NO)C(C)(C)C` the inhibition was 18.5% and 18% (prothrombin time; human platelet-poor plasma; 100 µM, added: AP venom).

Excerpt of the above:
For `O=C(CSc1nc2c(c(=O)[nH]1)CCCC2)NNC(=O)c1ccc(Cl)cc1`, the inhibition was 53% (SARS-CoV-2; virucidal activity, plaque reduction; 125 µM).
With `O=C(CSc1nc2c(c(=O)[nH]1)CCCC2)NNC(=O)c1ccc([N+](=O)[O-])cc1` the inhibition was 38.9 ± 1.91% (SARS-CoV-2; viral replication, plaque reduction; 62.5 µM).
`CC(C)(C)[C@H](NC(=O)C(F)(F)F)C(=O)N1C[C@H]2[C@@H]([C@H]1C(=O)N[C@H](C#N)C[C@@H]1CCNC1=O)C2(C)C` gave an inhibition of 1.25% and 1.54% and 7.67% (SARS-CoV-2; viral replication; Vero E6; 0.313 µM).
